# Published values gathered from unrelated publications.
# Each numbered part is a random draw from the data of one study; scales do not carry over between parts. “And” joins repeats or separate records; there may be more than shown.
# Chain of UniProt O15146 (whole entry, looked up): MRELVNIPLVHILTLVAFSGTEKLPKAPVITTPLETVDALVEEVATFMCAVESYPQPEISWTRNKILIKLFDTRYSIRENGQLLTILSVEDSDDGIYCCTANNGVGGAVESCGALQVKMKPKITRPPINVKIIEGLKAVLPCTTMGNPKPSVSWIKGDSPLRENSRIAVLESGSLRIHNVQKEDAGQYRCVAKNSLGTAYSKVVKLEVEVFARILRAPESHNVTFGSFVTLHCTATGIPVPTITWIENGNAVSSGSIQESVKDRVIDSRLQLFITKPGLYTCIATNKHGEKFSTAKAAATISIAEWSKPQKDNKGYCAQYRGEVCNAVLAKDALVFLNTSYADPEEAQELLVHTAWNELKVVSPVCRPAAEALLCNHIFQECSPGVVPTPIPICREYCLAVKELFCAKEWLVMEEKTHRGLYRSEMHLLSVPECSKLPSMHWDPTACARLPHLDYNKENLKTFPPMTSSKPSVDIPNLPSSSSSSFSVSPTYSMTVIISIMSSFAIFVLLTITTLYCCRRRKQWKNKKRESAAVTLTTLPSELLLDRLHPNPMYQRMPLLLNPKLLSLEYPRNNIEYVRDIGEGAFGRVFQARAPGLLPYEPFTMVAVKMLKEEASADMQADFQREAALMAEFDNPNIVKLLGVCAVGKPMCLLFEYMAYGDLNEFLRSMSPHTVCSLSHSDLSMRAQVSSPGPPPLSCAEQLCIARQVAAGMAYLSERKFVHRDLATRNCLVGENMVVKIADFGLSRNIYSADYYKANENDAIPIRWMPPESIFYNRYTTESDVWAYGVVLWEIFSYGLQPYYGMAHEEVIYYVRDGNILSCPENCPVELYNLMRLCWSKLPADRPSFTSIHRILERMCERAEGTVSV
# Chain of UniProt P47898 (whole entry, looked up): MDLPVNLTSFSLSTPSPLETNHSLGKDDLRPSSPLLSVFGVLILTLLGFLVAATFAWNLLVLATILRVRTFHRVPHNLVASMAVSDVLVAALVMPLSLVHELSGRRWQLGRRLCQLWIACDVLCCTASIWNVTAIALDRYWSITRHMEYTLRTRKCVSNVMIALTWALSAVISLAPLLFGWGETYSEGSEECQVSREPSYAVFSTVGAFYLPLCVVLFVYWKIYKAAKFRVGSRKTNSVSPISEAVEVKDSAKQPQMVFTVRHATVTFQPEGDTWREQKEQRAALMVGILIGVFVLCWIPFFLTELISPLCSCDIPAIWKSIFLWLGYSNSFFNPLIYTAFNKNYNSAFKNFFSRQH
# Chain of UniProt P29317 (whole entry, looked up): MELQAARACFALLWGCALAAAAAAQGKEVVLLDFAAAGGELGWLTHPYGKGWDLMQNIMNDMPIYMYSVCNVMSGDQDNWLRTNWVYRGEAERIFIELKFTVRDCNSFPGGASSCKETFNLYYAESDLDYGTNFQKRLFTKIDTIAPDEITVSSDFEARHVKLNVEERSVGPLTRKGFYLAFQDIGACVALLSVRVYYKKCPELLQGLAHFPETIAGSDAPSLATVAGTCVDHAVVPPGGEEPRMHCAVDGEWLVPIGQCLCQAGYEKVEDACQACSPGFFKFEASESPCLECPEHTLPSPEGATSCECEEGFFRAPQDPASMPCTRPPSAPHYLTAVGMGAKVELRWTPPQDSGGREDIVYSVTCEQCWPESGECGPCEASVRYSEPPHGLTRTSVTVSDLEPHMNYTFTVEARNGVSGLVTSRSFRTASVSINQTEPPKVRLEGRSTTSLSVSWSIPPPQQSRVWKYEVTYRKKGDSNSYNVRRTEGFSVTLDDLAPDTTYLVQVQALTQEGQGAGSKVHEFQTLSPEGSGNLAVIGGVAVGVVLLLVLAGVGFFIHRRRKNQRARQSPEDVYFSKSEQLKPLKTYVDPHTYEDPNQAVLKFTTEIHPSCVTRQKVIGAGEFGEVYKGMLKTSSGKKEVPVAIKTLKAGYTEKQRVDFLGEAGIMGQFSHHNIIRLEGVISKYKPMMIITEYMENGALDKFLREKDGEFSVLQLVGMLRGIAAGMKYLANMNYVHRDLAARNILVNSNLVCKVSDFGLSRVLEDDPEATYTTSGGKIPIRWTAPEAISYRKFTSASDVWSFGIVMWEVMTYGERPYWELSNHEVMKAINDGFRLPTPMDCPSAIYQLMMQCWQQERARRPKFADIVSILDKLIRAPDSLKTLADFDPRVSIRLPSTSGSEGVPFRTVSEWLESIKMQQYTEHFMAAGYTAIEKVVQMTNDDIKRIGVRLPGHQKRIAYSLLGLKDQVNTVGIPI
# Chain of UniProt P08069 (whole entry, looked up): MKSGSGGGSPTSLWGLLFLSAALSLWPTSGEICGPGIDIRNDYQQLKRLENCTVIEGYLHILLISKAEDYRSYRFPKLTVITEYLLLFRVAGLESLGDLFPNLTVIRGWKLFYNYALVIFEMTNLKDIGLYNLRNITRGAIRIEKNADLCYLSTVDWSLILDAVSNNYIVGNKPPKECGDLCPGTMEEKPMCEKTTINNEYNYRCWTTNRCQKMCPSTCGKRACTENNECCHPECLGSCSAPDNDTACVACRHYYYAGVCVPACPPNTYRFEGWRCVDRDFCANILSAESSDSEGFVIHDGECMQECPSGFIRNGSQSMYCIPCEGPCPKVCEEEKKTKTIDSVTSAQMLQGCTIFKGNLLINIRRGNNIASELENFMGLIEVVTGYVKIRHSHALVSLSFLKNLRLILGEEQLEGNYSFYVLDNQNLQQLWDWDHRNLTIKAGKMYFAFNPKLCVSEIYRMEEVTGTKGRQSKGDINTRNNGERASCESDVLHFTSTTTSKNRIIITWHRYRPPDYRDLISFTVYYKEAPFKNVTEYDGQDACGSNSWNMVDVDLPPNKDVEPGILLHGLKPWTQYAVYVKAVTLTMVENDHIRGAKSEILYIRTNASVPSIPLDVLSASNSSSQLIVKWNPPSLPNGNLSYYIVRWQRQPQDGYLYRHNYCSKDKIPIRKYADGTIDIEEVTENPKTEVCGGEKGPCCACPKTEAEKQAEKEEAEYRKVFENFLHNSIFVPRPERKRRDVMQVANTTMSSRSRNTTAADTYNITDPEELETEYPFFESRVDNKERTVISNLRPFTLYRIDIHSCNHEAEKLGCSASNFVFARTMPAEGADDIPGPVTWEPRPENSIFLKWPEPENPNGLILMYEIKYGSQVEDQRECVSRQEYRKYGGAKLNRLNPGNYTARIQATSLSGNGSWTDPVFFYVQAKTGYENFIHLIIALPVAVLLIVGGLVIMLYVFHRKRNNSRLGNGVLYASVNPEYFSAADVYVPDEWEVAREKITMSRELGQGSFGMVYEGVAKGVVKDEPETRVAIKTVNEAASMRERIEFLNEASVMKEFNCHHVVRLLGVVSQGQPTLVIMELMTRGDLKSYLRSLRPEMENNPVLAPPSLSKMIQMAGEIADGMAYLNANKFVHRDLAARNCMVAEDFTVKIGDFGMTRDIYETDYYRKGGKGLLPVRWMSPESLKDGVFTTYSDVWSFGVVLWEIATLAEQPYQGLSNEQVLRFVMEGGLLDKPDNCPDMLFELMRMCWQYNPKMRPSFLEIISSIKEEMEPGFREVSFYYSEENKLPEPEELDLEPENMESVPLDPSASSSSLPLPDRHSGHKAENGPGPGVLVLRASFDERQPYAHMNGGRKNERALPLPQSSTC
# Chain of UniProt Q06418 (whole entry, looked up): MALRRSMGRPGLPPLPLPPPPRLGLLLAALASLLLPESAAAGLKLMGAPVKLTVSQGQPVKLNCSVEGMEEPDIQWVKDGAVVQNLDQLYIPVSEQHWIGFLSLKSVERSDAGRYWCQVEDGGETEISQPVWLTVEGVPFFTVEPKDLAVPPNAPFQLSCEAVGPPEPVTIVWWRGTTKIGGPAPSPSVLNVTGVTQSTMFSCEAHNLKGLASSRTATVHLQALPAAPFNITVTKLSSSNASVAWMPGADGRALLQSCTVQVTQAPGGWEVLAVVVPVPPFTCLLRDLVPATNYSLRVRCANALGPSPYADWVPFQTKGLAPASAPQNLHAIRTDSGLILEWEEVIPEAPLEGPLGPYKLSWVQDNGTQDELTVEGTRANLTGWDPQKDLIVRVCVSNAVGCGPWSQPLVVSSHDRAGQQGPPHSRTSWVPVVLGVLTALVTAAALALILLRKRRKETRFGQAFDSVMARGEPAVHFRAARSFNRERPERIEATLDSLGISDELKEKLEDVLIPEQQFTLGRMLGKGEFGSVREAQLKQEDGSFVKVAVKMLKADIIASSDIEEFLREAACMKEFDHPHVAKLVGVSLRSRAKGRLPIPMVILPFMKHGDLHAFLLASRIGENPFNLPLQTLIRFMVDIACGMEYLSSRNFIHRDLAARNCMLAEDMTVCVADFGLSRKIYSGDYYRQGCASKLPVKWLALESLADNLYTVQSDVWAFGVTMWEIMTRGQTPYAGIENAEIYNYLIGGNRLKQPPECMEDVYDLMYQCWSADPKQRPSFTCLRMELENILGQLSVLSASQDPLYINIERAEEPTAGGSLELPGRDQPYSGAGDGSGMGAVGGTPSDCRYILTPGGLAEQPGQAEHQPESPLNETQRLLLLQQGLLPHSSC
# Chain of UniProt P48730 (whole entry, looked up): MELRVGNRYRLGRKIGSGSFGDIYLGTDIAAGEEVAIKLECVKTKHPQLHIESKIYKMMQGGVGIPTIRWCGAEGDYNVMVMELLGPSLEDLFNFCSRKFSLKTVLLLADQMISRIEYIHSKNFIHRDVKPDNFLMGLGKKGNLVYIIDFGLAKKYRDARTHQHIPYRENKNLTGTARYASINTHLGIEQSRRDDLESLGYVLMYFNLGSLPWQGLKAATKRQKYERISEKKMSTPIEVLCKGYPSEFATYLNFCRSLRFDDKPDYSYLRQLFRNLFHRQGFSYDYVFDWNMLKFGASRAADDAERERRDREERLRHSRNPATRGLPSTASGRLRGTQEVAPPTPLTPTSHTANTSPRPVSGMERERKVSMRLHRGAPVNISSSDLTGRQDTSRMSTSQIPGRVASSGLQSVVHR

# Series 1
# Host: human
# Sample: microsomes or S9
# Concentration: 2 µM
# Time: 0.5 h
Structure (SMILES),remaining compound
CN1CC[C@H]2CN(C(=O)c3c4c(nn3C)CCCC4)C[C@H]21,> 100%
Cc1cc(C)n(NC(=O)c2nn(C)cc2Br)c(=O)c1,33%
CCOc1ccccc1O[C@@H](c1ccccc1)[C@@H]1CNCCO1,68.8%
COc1ccc(NC(=O)COCc2ccccc2)cc1,0.119%
Oc1c(-c2ccccc2Br)c(-n2cncn2)nc2ccccc12,> 99.9%
CCOc1cc(=O)n2c(c1C(=O)NCCc1ccc(OC)c(OC)c1)CCCC2,94%
CC(C)C(NCc1cc(=O)n(C)c(=O)n1C)c1ccc(C2CCCCC2)cc1 (stereo not shown),0.333%
CC1CCc2cc(F)ccc2N1S(=O)(=O)c1cc(Cl)ccc1Cl (stereo not shown),92.6%
Cc1cc(Nc2cnccn2)cc(C2CCCN2C(=O)CC2(O)CCCCC2)n1 (stereo not shown),15.3%
C[S+]([O-])c1sc(Br)c2c1C(=O)CC(C)(C)C2 (stereo not shown),92.2%
Fc1cc(F)cc(-c2cc3cc(-c4ccccc4)[nH]c3cn2)c1,79.7%

# Series 2
# SMILES: O=C1Nc2ccc(Br)cc2/C1=C/c1cc2c([nH]1)CCCC2
# Effect on: enzyme activity
# Action: inhibitor
# Concentration: 0.5 µM
# Baseline: control
target,remaining activity
"Calcium/calmodulin-dependent protein kinase type 1 (CAMK1, Homo sapiens, UniProt Q14012)",98.4%
"Serine/threonine-protein kinase SIK2 (SIK2, Homo sapiens, UniProt Q9H0K1)",92.7%
"Muscle, skeletal receptor tyrosine-protein kinase (MUSK, Homo sapiens, UniProt O15146)",88.6%
"Ephrin type-A receptor 2 (EPHA2, Homo sapiens, UniProt P29317)",110%
"Vascular endothelial growth factor receptor 1 (FLT1, Homo sapiens, UniProt P17948)",73.4%
"Protein kinase C theta type (PRKCQ, Homo sapiens, UniProt Q04759)",98.4%
"Serine/threonine-protein kinase PAK 6 (PAK6, Homo sapiens, UniProt Q9NQU5)",89.8%
"Dual specificity protein kinase CLK1 (CLK1, Homo sapiens, UniProt P49759)",97.2%
"Casein kinase I isoform delta (CSNK1D, Homo sapiens, UniProt P48730)",72.4%
"SRSF protein kinase 1 (SRPK1, Homo sapiens, UniProt Q96SB4)",98.3%
"Dual specificity protein kinase CLK2 (CLK2, Homo sapiens, UniProt P49760)",88.6%
"Ephrin type-A receptor 6 (EPHA6, Homo sapiens, UniProt Q9UF33)",89.2%
"Ribosomal protein S6 kinase alpha-3 (RPS6KA3, Homo sapiens, UniProt P51812)",80.9%
"Insulin-like growth factor 1 receptor (IGF1R, Homo sapiens, UniProt P08069)",74.3%
"Tyrosine-protein kinase Tec (TEC, Homo sapiens, UniProt P42680)",129%
"Tyrosine-protein kinase JAK1 (JAK1, Homo sapiens, UniProt P23458)",99.3%
"Cyclin-dependent kinase 2, with cyclin E (CDK2, Homo sapiens, UniProt P24941)",96%
"Serine/threonine-protein kinase Sgk2 (SGK2, Homo sapiens, UniProt Q9HBY8)",101%
"Tyrosine-protein kinase receptor TYRO3 (TYRO3, Homo sapiens, UniProt Q06418)",104%
"Protein kinase C zeta type (PRKCZ, Homo sapiens, UniProt Q05513)",104%
"Casein kinase I isoform epsilon (CSNK1E, Homo sapiens, UniProt P49674)",84.3%
"Serine/threonine-protein kinase PAK 1 (PAK1, Homo sapiens, UniProt Q13153)",95.7%
"Calcium/calmodulin-dependent protein kinase kinase 1 (CAMKK1, Homo sapiens, UniProt Q8N5S9)",69.6%

# Series 3
# SMILES: C[C@H]1CC[C@H](n2c3cnccc3c3cnc(Nc4ccc5c(n4)CCN(C(=O)CO)C5)nc32)CC1
# Concentration: 1 µM
target,effect on,method,baseline,remaining binding [%]
"Bone morphogenetic protein receptor type-1A (BMPR1A, Homo sapiens, UniProt P36894)",binding,competition with immobilised ligand,,100
"Ribosomal protein S6 kinase alpha-4 (RPS6KA4, Homo sapiens, UniProt O75676)",binding,competition with immobilised ligand,,100
"Muscle, skeletal receptor tyrosine-protein kinase (MUSK, Homo sapiens, UniProt O15146)",binding,competition with immobilised ligand,,67
"Mitogen-activated protein kinase 15 (MAPK15, Homo sapiens, UniProt Q8TD08)",binding,competition with immobilised ligand,,2
"Receptor-interacting serine/threonine-protein kinase 2 (RIPK2, Homo sapiens, UniProt O43353)",binding,competition with immobilised ligand,,100
"FLT3 ITD mutant, human",,scanMAX kinase panel,control,0.3
"MAP kinase-interacting serine/threonine-protein kinase 2 (MKNK2, Homo sapiens, UniProt Q9HBH9)",binding,competition with immobilised ligand,,3.4
"Serine/threonine-protein kinase 36 (STK36, Homo sapiens, UniProt Q9NRP7)",binding,competition with immobilised ligand,,24

# Series 4
# SMILES: CC(=O)N[C@@H](Cc1c[nH]c2ccccc12)C(=O)N[C@@H](CCC(=O)C=[N+]=[N-])C(=O)OC(C)C
# Host: mouse
# Sample: EL4 tumour
# Dose: dose not given
measured,normalized intensity
fumarate,-0.0638 and -0.218 and 0.0005 and -0.0649 and -0.0545 and -0.248
nicotinamide,-0.121 and 0.009 and -0.016 and -0.148 and -0.026 and 0.013
FGAR,0.913 and 0.475 and 0.592 and 0.117 and 0.87 and 0.522

# Further values, each from its own experiment
Structure (SMILES),target,effect on,concentration,endpoint,result
CN(C)C(=O)Cn1cc(-c2nc([C@@](C)(c3ccc(-c4cnc(N)nc4)cc3)C3CC3)no2)cn1,"5-hydroxytryptamine receptor 5A (HTR5A, Homo sapiens, UniProt P47898)",ligand displacement,10 µM,inhibition,-4.97%

# Repeated from above (series 4):
measured,normalized intensity
fumarate,-0.0638 and -0.218 and 0.0005 and -0.0649 and -0.0545 and -0.248
nicotinamide,-0.121 and 0.009 and -0.016 and -0.148 and -0.026 and 0.013
FGAR,0.913 and 0.475 and 0.592 and 0.117 and 0.87 and 0.522
